Measurements pooled from the literature.
Every numbered part comes from another study and shows a few of its results, in no order. Positions count from the first letter of the parent shown.

Sample 1
Target: ABI1, truncated, D143A, DHFR fusion (Arabidopsis thaliana)
Method: DHFR PCA, deep sequencing
Medium: yeast
Setting: methotrexate growth selection, single substitutions
Added: (+)-ABA 0.0091 µM
Reference: wild-type fitted maximum
Reading: higher = stronger binding
Starting sequence: PYL1, truncated, DHFR fusion (Arabidopsis thaliana); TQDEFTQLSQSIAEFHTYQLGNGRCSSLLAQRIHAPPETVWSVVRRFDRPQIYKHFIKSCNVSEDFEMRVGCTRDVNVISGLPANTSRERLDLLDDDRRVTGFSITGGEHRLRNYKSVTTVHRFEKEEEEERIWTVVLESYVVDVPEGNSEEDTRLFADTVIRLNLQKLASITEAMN; partner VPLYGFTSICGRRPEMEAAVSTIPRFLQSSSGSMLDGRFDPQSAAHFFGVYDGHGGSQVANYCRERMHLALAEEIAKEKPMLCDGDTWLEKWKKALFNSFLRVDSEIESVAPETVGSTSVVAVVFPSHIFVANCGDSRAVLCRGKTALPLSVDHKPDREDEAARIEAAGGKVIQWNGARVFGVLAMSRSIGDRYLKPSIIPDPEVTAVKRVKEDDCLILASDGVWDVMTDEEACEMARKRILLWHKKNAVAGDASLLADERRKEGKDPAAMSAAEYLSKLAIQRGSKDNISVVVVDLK
| Substitution | relative binding score |
| --- | --- |
| K58D | 1.08% |
| Y115D | 6.09% |
| T154R | -2.11% |
| D92M | -2.28% |
| Q31Y | -5.13% |
| I133L | 27% |
| E139D | -2.97% |
| P50T | 23.3% |
| T17N | 0.883% |
| R88W | -0.141% |
| S11F | 14.8% |
| R113Y | -9.6% |
| V142N | 1.79% |
| P146D | -1.56% |
| L82G | 47.5% |

Sample 2
Target: Ras GTPase-activating protein-binding protein 1, full length (G3BP1, Homo sapiens, UniProt Q13283)
UniProt Q13283, sequence (whole entry, looked up): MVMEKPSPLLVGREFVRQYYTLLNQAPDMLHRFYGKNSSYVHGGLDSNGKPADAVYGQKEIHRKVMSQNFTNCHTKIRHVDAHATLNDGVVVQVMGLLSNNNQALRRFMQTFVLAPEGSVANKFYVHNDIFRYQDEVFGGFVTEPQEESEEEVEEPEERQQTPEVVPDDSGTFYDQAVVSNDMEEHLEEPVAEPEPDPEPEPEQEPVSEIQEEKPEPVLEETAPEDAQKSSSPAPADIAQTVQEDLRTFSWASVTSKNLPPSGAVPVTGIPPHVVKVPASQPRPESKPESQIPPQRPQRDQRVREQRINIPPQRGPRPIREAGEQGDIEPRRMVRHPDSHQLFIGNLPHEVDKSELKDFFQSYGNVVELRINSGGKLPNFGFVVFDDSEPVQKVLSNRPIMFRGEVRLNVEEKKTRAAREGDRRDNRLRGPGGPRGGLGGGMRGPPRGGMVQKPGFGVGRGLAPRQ
Method: RNA Bind-n-Seq
Molecule type: RNA
Medium: in vitro
Tested at: 200 nM
Setting: whole 134-nt RNA, ends assumed
Added: 150 mM LiCl
Reference: input library
Reading: higher = stronger binding
All molecules: 7-deaza-guanosine replaces G
All sequences stand within: GGGAGUUCUACAGUCCGACGAUC … UGGAAUUCUCGGGUGUCAAGG
| Oligonucleotide | log2 enrichment |
| --- | --- |
| AGUCCUGUGCUACACAUCGUAUGUACCGAAUCGGAAAAAGGAAAAAGGGAAAAAGGGAAAGUAUUAUGUUACGCCGUUCGGAUCUGCACU | -1.18 |
| CAAGUCCUGUGCUACACAUCGUAUGUACCGAAUCGGAAAAAAAGGUGGUUUUUGGAAAGUAUUAUGUUACGCCGUUCGGAUCUGCACUUC | -1.13 |
| UGGCCCUGGUGGCAUGCGGGGAGGAAGAGGUGGCCUCAUGGAUCGUGGUGGUCCCGGUGGAAUGUUCAGAGGUAGCCGUGGUGGAGACAG | 0.147 |
| CGGCAGUAGCAGCAGCGCCGGGUCCCGUGCGGAGGUGCUCCUCGCAGAGUUGUUUCUCGAGCAGCGGCAGUUCUCACUACAGCGCCAGGA | -0.635 |
| ACCAUGCAGGUGGGCAUCUUUGGGAAGUGGGGCAAGGGGGGGAUAGGGAGGGGGGUAACACUUUGGGAACAGGUGGUCUCAGGUCGUUUC | 0.131 |
| GCAGGAAGUAAAAACAAAUGGAAAUGCUUCGGAUAGUGGCAGGGGUGGGGGUUGCUAAGGAAAGGGUGGGAUGGGAGUGGGUACAGAGUU | -0.208 |
| UCAAGUCCUGUGCUACACAUCGUAUGUACCGAAUCGGGAGGGAGGGAAAAAGGGAAAGUAUUAUGUUACGCCGUUCGGAUCUGCACUUCC | -0.0168 |
| AAGUCCUGUGCUACACAUCGUAUGUACCGAAUCGGAAAAAAAGGUUUUUUUGGAGGAAAGUAUUAUGUUACGCCGUUCGGAUCUGCACUU | -2.29 |
| CACAGACAACACGCACCCACACAGACACAGAGGGAAGGGGUUGGGAAGGGGACAGGGUGCACAGCAGGGCGGGGUAGGACCCCAGCCCCU | 0.289 |
| CUGUGCUACACAUCGUAUGUACCGAAUCGGGGCCCCCCCGGGCCCCCCCGGGCCCCCCCGGGAAAGUAUUAUGUUACGCCGUUCGGAUCU | 0.455 |
| UGUGCUACACAUCGUAUGUACCGAAUCGGGGUUUUUUUGGGGUUUUUUUGGGUUUUUUUGGGAAAGUAUUAUGUUACGCCGUUCGGAUCU | 1.61 |

Sample 3
Target: RING finger protein unkempt homolog, zinc fingers 1-6, GST-SBP tag (UNK, Homo sapiens, UniProt Q9C0B0, residues 30-357)
Method: RNA Bind-n-Seq
Molecule type: RNA
Medium: in vitro
Tested at: not given
Setting: RNA with constant flanks, ends assumed
Reference: input RNA pool
Reading: higher = stronger binding
All sequences stand within: GGGAGUUCUACAGUCCGACGAUC … CAACAGAGGAUUGAGCAUCA
Target sequence (chain): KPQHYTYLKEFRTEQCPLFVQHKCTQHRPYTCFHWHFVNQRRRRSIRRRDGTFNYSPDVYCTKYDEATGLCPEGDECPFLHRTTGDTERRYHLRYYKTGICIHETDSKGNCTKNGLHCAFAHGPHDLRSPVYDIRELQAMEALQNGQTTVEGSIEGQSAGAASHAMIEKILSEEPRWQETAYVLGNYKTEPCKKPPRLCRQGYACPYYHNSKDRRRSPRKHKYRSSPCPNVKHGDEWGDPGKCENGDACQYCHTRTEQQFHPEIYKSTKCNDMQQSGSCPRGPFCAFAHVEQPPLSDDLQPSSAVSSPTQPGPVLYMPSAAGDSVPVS
| Oligonucleotide | bound/input enrichment |
| --- | --- |
| ACUAUCUGAAGAUUUCCAUUUGUCAAAAAGUAAUGAUUUCUUGAUAAUUGUGUAGUAAUGUUUUUCCGAACCCAGCAGUUACCUUAAAGCUGAAUUUAUAUUUAGUAACUUCUGUGUUAA | 0.582 ratio |
| GAUGCAGUUAAGGAAGAAAAUCUGAAGCUAAAGUCGGAAAAUCAAGUUCUCGGACAAUAUACCGAAAACCUCAUGUCUGCUUCUAGUGUUUUUCAAACAACUGAUACAAAAAGCAAAAGG | 0.128 ratio |
| CAUCUGUAAGCAGUGUGGCCUCUCUGCAGAGGUGGCAGACGUGAUUAGAACUGUGUGUGUCUCCGAGGUGACAGUGUUUAUAGCUUAUUAAAUAGUUGAUACAGAUGCCCUUAUGAAAAC | 3.07 ratio |
| CGUGCUUUUGAAGACGAUGAUAUCACGCAUGUUGAAGGAAGUGUAGAUCCCAUCCGAGACACCGAGAUAAUUCACGAGGAGCUCCAGCUGAAGGACGAGGAGAUGAUUGGGCCCAUUCUA | 0.237 ratio |
| CAUGACAGCAACACUGAUAUGUUUCAGAUUGGUCGGUCAACUGAAAGUCCUAUUGAUUUUGCCGUAACUGACACCGUUCCUGGAAGUCAGAGUAAUUCCGACACGCAGUCAGUACAAAGC | 0.0666 ratio |
| AAACCCCAGGCUGUUUCUUCAUUAAACUCUAGUCAUUCCAGGUCUCAUGGGAAUGAUCACCACCGCAAGGAACAUCAACGCUCCAAAUCACCUCGGGACCCUGAUGCAAACUGGGAUUCU | 0.199 ratio |
| CGUGCUUUUGAAGAUGAUGAUAUCACGCACGUUGAAGGAAGUGUAGAUCCUAUUCGAGAUACCGAAAUAAUACAUGAAGAGCUUCAGCUUAAAGAUGAGGAAAUGAUUGGGCCCAUUAUA | 0.179 ratio |
| UAGCGCCAUCUCAAAGGCCAUCUUUCCACCCUGGCAUGUGGCUAGGGUGUGUCCUGGAUCCACCGGGUGGGAGGAGGAGCCAGAUGGGUUUAUGAUACAUGGCUGUUUGAGAGUUCCCAU | 0.0649 ratio |
| UGUGGCCUCUCUGAAGAAAAAGCCGUAGAGAAAUUUGGGGAAGAAAAUAUUGAAGUUUACCACCGUUUCUUUUGGCCAUUGGAAUGGACAGUCCCAUCCCGGGAUAACAACAAAUGUUAU | 0.0718 ratio |
| GAAGAUUUCCUGAAAAAAUGGGAGACCCCUUCUCAGAAUACAGCCCAGUUGGAUCAGUUUGACCGAAUCAAGACCCUUGGCACCGGCUCCUUUGGGCGAGUGAUGCUGGUGAAGCACAAG | 0.231 ratio |
| AACCAAGGCAUUGCUCCUGUCCAAGUCUGUACUAAUCUCUUGAUCAAGCAGGUGAUUGAAGCCGCUUGUGGUUCACAUCAUUCGAUGGCUUUAGCAGCUGAUGGAGAGUUAUUUGCUUGG | 0.0958 ratio |

Sample 4
Target: RNA binding protein fox-1 homolog 2, RRM domain, GST-SBP tag (RBFOX2, Homo sapiens, UniProt O43251-10, residues 100-194)
Method: RNA Bind-n-Seq
Molecule type: RNA
Medium: in vitro
Tested at: 365 nM
Setting: natural RNA segment, single round, ends assumed
Reference: no-protein control
Reading: higher = stronger binding
All sequences stand within: GGGAGUUCUACAGUCCGACGAUC … UGGAAUUCUCGGGUGCCAA
Residues (chain): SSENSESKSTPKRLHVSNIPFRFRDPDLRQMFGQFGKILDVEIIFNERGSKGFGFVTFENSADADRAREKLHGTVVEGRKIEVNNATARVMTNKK
| Oligonucleotide | RBNS enrichment (R) |
| --- | --- |
| UCAGGUCUAGGAUGAUUAGGGUGUGGUAUUAUUUGGUUUGCAACAUCCCAAGGCAAUACUUCCAGACUAAGGUGGCCAUCCAGCAUUCCUUUGAGUCCUCCAAGAAAGAU | 0.206 |
| GGCUCAGGCCUUGGACAGUCCAACAUUAAAGUCAACAUGCUGAUCUCUCCAUUCCUGGUUCAGGGUUAGGGUCCUGAGAGGCUGGCUCGGCACUACUCCGAGGGUCCCUC | 0.229 |
| UGGUUUAGUUCUCCCCGCCUCCCUGUUUCUUGGAAAAGCUACAGGGUCCCUGUAGGGCAAAAUUCCCAGGCGCCUUGCUGCAGACAGAGUAAGACAAAAACACCAGGAAG | 0.308 |
| UUAAGUAUAUUGCUGGAGAGAGACUAUCCCACCACCUAUACAUCUACAAAGAUAUAUGUCUAAAGUUGGAAAAUCAACUUCUGCUUUCUCAGAAUGGGAGACCGAGCGCA | 24.9 |
| GUCUUGUCUCCAUUUGGAUAAAAGGAACCAACCAACAAACAAUGCCAUCACUGGAAUUUCCCACCGCUUUGUGAGCCGUGUCGUAUGACCUAGUAAACUUUGUACCAAUU | 0.64 |
| CACAGCUUUAGUCACAAAAGUUAGUUUAGUUAUCUCAUUUCGCUUGGAGAUGGAAUUUCAGGAAGGGAUAUAUUAUUUAAGAUUAUUGUUUAAUUACAAGAAUUUUAAAA | 0.823 |
| ACCAUCAAUAUGUAGACCGUCAUUGACCAAAACAUCCUGAUGUGUGCAUGACUGUACUUUUCAUUAAAUAACAGAUAAGGGGCUAUAGAAUUUGGGGCUCUGACUGAUCA | 1.91 |
| AUAUGCUUCUGUAAUAUGAAAUAGGUUAUUUGAUAACUGAGAAACUUUAAAUGUAUCAUGUGAGCAUAAGAGUCUGGAUUAUCUAACAUUGUUAGCCCUGUGUAUGUACA | 0.441 |
| CUCAGGCAAUCUGCCCGCCUUGGCCUCCCAAAGUGCUAGGAUUACAGGUAUGAGCCACCAUGCCCGGCUGGCAGUUGUAUUUUUUAAAGCCCUUCUGAUGAUUCCAAUGU | 0.462 |
| UGCCUCUUCUUUACCUCCCGCCUCUAUGGGGAUGACUUUUGAGGCCCCACCUGGGUCAAGGGUUCAGUAUUUUAGUCUAAAACUUCAGAAAGUCAAGCAUCACUUAAGAC | 0.751 |
| AGAGGAGUACCAUGAAAGCACUGAGGAAACAUUUCUUCAUCGUGUUACACUGACAACCCACAUCUUGGCUUGUGAUGGAUCAAAUCUUUUAUGAAGCCUUCAGGGGGACU | 0.256 |
| AGCGGCUGGAUCUCCAGGGACGCGUCUUGAGCUGAGACGCUUUGAAAGCCAGGGUGAUGCUCAGACAGUGUGCCAGCCAAAAUGACUUGGGGGAGGGGAGCCGCUUCCCC | 0.53 |

Sample 5
Target: CCND3, cyclin fold, Cln2 fusion (human)
Method: yeast growth competition, sequencing
Medium: yeast
Setting: weak parent motif
Reference: not given
Reading: higher = stronger binding
Starting sequence: PLK5 docking peptide (human); IFRKVGQRLLTQC
| Substitution | normalised enrichment score |
| --- | --- |
| K4A | -0.34 |
| R8A | 0.25 |
| Q12A | -0.057 |
| C13A | 0.168 |
| G6A | -0.0879 |
| V5A | -0.177 |
| L10A | 0.074 |

A few entries again (sample 3):
| Oligonucleotide | bound/input enrichment |
| --- | --- |
| AAACCCCAGGCUGUUUCUUCAUUAAACUCUAGUCAUUCCAGGUCUCAUGGGAAUGAUCACCACCGCAAGGAACAUCAACGCUCCAAAUCACCUCGGGACCCUGAUGCAAACUGGGAUUCU | 0.199 ratio |
| CGUGCUUUUGAAGAUGAUGAUAUCACGCACGUUGAAGGAAGUGUAGAUCCUAUUCGAGAUACCGAAAUAAUACAUGAAGAGCUUCAGCUUAAAGAUGAGGAAAUGAUUGGGCCCAUUAUA | 0.179 ratio |
| UAGCGCCAUCUCAAAGGCCAUCUUUCCACCCUGGCAUGUGGCUAGGGUGUGUCCUGGAUCCACCGGGUGGGAGGAGGAGCCAGAUGGGUUUAUGAUACAUGGCUGUUUGAGAGUUCCCAU | 0.0649 ratio |
| UGUGGCCUCUCUGAAGAAAAAGCCGUAGAGAAAUUUGGGGAAGAAAAUAUUGAAGUUUACCACCGUUUCUUUUGGCCAUUGGAAUGGACAGUCCCAUCCCGGGAUAACAACAAAUGUUAU | 0.0718 ratio |
